Published values collected from several papers.
Parts stem from different laboratories: compare values within a part only.

Study 1 — technique: protein-binding microarray; form: double-stranded DNA, one strand shown; sample: in vitro; tested at: not given; reading: higher = stronger binding
Target: Cyclic AMP-dependent transcription factor ATF-1 (ATF1, Homo sapiens, UniProt P18846, residues 1-271, full length assumed)
Setting: k-mer, scored over probes, only values ≥0.25
Construct (chain): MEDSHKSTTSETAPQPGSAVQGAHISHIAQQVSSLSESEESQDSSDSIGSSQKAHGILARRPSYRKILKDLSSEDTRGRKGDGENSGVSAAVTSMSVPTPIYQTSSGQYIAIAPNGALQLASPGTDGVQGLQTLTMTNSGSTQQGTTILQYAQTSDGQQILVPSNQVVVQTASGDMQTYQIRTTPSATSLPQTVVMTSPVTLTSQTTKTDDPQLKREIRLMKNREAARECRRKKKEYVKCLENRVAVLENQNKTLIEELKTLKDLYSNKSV
Oligonucleotide	E-score
ACGTACG	0.398
CGTAATC	0.396
CCTGACG	0.324
ACCCCAC	0.26
TGACGAA	0.391
ATATACG	0.261
ACGCATG	0.287
ACGTCAG	0.476
GACGACA	0.326
ATGATGC	0.252
ACGTAAA	0.381
GACGCAC	0.291
TGACGCA	0.473
GGCGTCA	0.396
CTACGCA	0.283
CATCACA	0.334
GACGTCA	0.492
AATTACG	0.295
ATGACGA	0.463
ACATGAC	0.365
CGATTAC	0.321
ACACGTG	0.316
TCCGTCA	0.327

Study 2 — technique: protein binding microarray; form: double-stranded DNA, one strand shown; sample: in vitro; tested at: not given; relative to: not given; reading: higher = stronger binding
Target: Histone acetyltransferase KAT6A, winged helix 1, GST fusion (KAT6A, Homo sapiens, UniProt Q92794, residues 1-85)
Setting: 8-mer, flanks averaged, mean of 2 arrays, mostly near background
Construct (chain): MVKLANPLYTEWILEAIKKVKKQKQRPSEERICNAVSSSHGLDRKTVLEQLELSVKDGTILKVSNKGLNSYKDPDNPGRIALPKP
Oligonucleotide	E-score
AATATCGG	0.172
CTGATCAC	-0.122
CTAGATAC	-0.0373
GGCCCAAC	-0.112
AATACTCG	0.0764
AGCGCCTC	0.229
GGCAAAAC	0.0106
ACTCGATA	-0.0259
ATAGTAGC	0.0522
AGTGTTGA	-0.0407
AGGTGCAA	-0.204
ACCTAAAG	-0.148
AAATCCCC	-0.0576
AAATAGGT	-0.185
CGGTAAGC	0.265
AAGTGCCT	-0.254
GCAAATAA	-0.188
CAGTTTTA	-0.184
CACCCTTC	-0.243
AACGGCGC	0.377
GAAGGATC	-0.147
TTACGGAA	0.182
GCAATAAA	-0.0664
TTGTCAAA	-0.161
ACAAGGTA	-0.084

Study 3 — technique: RNA Bind-n-Seq; form: RNA; sample: in vitro; tested at: 200 nM; setting: whole 134-nt RNA, ends assumed; added: 150 mM KCl; relative to: input library; reading: higher = stronger binding
Target: Fragile X messenger ribonucleoprotein 1, C-terminal low-complexity region (Fmr1, Mus musculus, UniProt P35922)
Oligonucleotide	log2 enrichment
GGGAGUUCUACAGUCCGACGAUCCUCAAGUCCUGUGCUACACAUCGUAUGUACCGAAUCGGGGAAGGAAGGGGAAGGAAAGUAUUAUGUUACGCCGUUCGGAUCUGCACUUCCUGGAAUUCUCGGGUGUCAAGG	0.0455
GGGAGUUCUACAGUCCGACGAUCUGGCCCUGGUGGCAUGCGGGGAGGAAGAGGUGGCUUCAUGGAUCGUGGUGGUCCCGGUGGAAUGUUCAGAGGUGGCCGUGGUGGAGACAGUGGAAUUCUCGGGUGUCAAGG	0.273
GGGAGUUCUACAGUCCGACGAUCUGGCCCUGGUGGCAUGCGGGGAGGAAGAGGUGGCCUCAUGGAUCGUGGUGGUCCCGGUGGAAUGUUCAGAGGUGGCCGUGGUAGAGACAGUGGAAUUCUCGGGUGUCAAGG	-0.0966
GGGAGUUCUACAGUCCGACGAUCCUCAAGUCCUGUGCUACACAUCGUAUGUACCGAAUCGGGGAGGGGAGGAGGGGAAAGUAUUAUGUUACGCCGUUCGGAUCUGCACUUCCAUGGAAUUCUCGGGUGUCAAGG	1.24
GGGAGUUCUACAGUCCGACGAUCCACAGACAACACGCACCCACACAGACACAGAGGGAAGGGGUUGGGAUGGGGACAGGGUGCACAGCAGGGCGGGGUAGGACCCCAGCCACUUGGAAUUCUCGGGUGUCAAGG	1.09
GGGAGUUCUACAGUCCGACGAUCCUGUGCUACACAUCGUAUGUACCGAAUCGGGGUUUUUUUGGGGUUUUUGGGGUUUUUGGGGAAAGUAUUAUGUUACGCCGUUCGGAUCUGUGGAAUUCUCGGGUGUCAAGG	-0.166
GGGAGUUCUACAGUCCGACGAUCGCAGGAAGUAAACACAAAUGGAAAUGCUUCGGAUAGUGGCAGGGGUGGGGGUUGCUAAGGAAAGGGUGGGAUGGGAGUGGGUAAAGAGUUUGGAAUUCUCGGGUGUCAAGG	0.364
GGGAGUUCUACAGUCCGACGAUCGGUGGAAUCCAUAGAGCUCCCCAUGGACAACAAGACCAAUAAGAGGCGUGGGUUCUGCUUUAUUACCUUUAAGGAAGAAGAACCAGUGAAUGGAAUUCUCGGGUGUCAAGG	-0.123
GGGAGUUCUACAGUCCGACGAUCUCCUGUGCUACACAUCGUAUGUACCGAAUCGGGUUUUUGGGAAAAAGGGAAAAAAAGGGAAAGUAUUAUGUUACGCCGUUCGGAUCUGCAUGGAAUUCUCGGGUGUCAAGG	-0.16

Study 4 — technique: RNA Bind-n-Seq; form: RNA; sample: in vitro; tested at: 365 nM; relative to: no-protein control; reading: higher = stronger binding
Target: RNA binding protein fox-1 homolog 2, RRM domain, GST-SBP tag (RBFOX2, Homo sapiens, UniProt O43251-10, residues 100-194)
Setting: natural RNA segment, single round, ends assumed
Target sequence (chain): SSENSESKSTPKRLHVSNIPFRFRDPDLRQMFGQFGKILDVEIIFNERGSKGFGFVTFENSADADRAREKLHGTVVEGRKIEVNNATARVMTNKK
Oligonucleotide	RBNS enrichment (R)
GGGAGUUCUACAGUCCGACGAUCUCCAGAGUACACAGUGAAACACUUGUCUUUUUUAAAAAACAAAAGCUAGCUACGAAUUUUUAAAGAAAUACUGUUUAAGUUAGAGAUGGUUUAAAGAAAAAUAGUUCACCUGGAAUUCUCGGGUGCCAA	0.7
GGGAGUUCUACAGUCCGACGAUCGAGACGGGGGUCUCACUUAGCUGUGAGUGGCCUUGAACUGACCCUUCCACCUUCAUUUCCCAAGUGCUGGGGUUAUAGGUUUGCACCAUGACACCCGACUUCGCCCUCAGUGGAAUUCUCGGGUGCCAA	0.72
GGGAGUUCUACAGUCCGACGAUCGGGAAUAAAAGUCAGAGCCUUACACAUGUCCAGCAAAAACUAUGGUUGGGAUACACCUAUUAUCCCCUAAAAACAUACAAAUAAUGCAAAAGGAUGAUGGAGCUUCCUGGUGGAAUUCUCGGGUGCCAA	0.392
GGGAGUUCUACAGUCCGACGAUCAGCUGAGCCAGGCUAUGAGGAAACCCUGGAUAUCAGCAUAAACCUAUGUCUGGGACUACGAUCCCUUUUCCCUGGGUAAUAAACUCAGCCACCCAUCCUAAGGAGGCAAGUGGAAUUCUCGGGUGCCAA	0.313
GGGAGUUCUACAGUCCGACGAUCCGAAGCUGGAGGAGGACUGCGUGGGCUGAGAUGCCACCCUUUGAAGGGUGAACAGCAUGGCGGCAUCUGGGCCCCACAGUAACACCUAGUGGCAACCUUGCCUUCCUGACUGGAAUUCUCGGGUGCCAA	5.29
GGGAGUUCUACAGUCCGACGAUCCUUUGACACAACAAGACACUCCAAUUGUGAUUUGAGUUGAGGAUCUCUGCCUGCCUUCCUGCCGUCCUUCCUUCUUCCCCGAUCCAUGCUACUUUUAGGGGCUGCGGAGAUGGAAUUCUCGGGUGCCAA	0.642
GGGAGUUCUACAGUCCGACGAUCUUUCACACUUCAGCAAACAUAAGGAGGACAGCUUUGUUAAUAGCUAAAAAGUACAAAUUAAAAGAUUUGAGAAAGUGGUAUUUUUUUCUGAAAGCAAACAAUGGCUUGUAUGGAAUUCUCGGGUGCCAA	0.805
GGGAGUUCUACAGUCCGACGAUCACAGCACGUUACUAAAGCAGUUACAUGCAUGUUGCGCUACCCUCAUCUGGUAUAGAGACCUGCAUUUUUACCUAACCUUCUAGACUCCUGAAAGGGAGUUAAAUGAAUUCUGGAAUUCUCGGGUGCCAA	0.67
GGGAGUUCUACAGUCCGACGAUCUAUUUAACUGUAAAAUGGAAUUUUGACUGAUUUGUUACAAUAAUAUAACUCUGAGAUGUGUGGAAGGGUCCAGUGCCCGGUUUCUAGGGCUAUGCAUGGAGGUGGGGUGGUGGAAUUCUCGGGUGCCAA	3.09
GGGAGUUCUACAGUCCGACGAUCAUGAUAUUGUGUAUUAAGACAUUCCUUAAUUAAAUUAGGACAAAAUGGCUGCUGUAUAUUUACAAUAUGGAAUUCUGAGUUAAGUACCGCCCUUCAUACUGGGAACAGAAUGGAAUUCUCGGGUGCCAA	0.289
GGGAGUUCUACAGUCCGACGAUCCUUACUGAGGCGCUGAAGAGGCUCCCCCCACCCCCUUGAGGGUCAGUUUGUUAUUUCUCAAGUAUACAGCACCGAGGUCAGUCAGUUGUCACUCCCUGAUGACGUGUAGCUGGAAUUCUCGGGUGCCAA	0.355
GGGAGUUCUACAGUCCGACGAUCGCACCACCAAGCCAAGGGAACCUGUGUCCGGUAUUCGAUACUGCGACUUUCUGCCUGGAGUGUAUGACUGCACAUGACUCGGGGGUGGGGAAAGGGGUCGGCUGACCAUGUGGAAUUCUCGGGUGCCAA	0.474

Study 5 — technique: Spec-seq; form: double-stranded DNA, one strand shown; sample: in vitro; tested at: not given; setting: whole probe, mean of replicates; relative to: not given; reading: lower = stronger binding; constant ends, left off below: GAGTCGTCTCGTCAGCAC … CCGTAGAGCACTCAGGTC
Target: POU domain, class 5, transcription factor 1, POU domain (Pou5f1, Mus musculus, UniProt P20263, residues 131-289)
Chain of UniProt P20263 (131-289, looked up): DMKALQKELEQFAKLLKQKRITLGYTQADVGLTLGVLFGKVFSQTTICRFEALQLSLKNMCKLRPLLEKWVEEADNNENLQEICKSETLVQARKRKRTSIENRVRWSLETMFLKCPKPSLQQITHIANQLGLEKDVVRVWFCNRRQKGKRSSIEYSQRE
Oligonucleotide	relative binding energy [ln ratio]
ATGCAAGG	-0.0443
ATGCATGC	-0.463
ATGCTAAT	-2.32
TCCTTAAT	0.673
ATGGATAT	-0.302
GATGTAAT	0.168
ATGCTTGT	0.674
ATGCAGCG	0.358
TTCGTAAT	0.708
ATGCGCTC	0.559
TCTTTAAT	0.524
ATGCCTAG	0.551
GTGTTAAT	-0.335
ATGCAAAC	-0.634
TTCCTAAT	0.572
ATCAGTAT	0.402
ATTGACAT	0.145

For quick reference, copied from above (study 2):
Oligonucleotide	E-score
AATATCGG	0.172
AATACTCG	0.0764
GGCCCAAC	-0.112
GAAGGATC	-0.147
AAATAGGT	-0.185
CAGTTTTA	-0.184
CTAGATAC	-0.0373
AACGGCGC	0.377
